Experimental data pooled from the literature.
Protocols differ between the studies behind these lines. ± marks the error that the study gave. No end group written: not given here.
B1: UGT1A9 (Homo sapiens, UniProt O60656); chain GKLLVVPMDGSHWFTMRSVVEKLILRGHEVVVVMPEVSWQLGRSLNCTVKTYSTSYTLEDLDREFKAFAHAQWKAQVRSIYSLLMGSYNDIFDLFFSNCRSLFKDKKLVEYLKESSFDAVFLDPFDNCGLIVAKYFSLPSVVFARGILCHYLEEGAQCPAPLSYVPRILLGFSDAMTFKERVRNHIMHLEEHLLCHRFFKNALEIASEILQTPVTEYDLYSHTSIWLLRTDFVLDYPKPVMPNMIFIGGINCHQGKPLPMEFEAYINASGEHGIVVFSLGSMVSEIPEKKAMAIADALGKIPQTVLWRYTGTRPSNLANNTILVKWLPQNDLLGHPMTRAFITHAGSHGVYESICNGVPMVMMPLFGDQMDNAKRMETKGAGVTLNVLEMTSEDLENALKAVINDKSYKENIMRLSSLHKDRPVEPLDLAVFWVEFVMRHKGAPHLRPAAHDLTWYQYHSLDVIGFLLAVVLTVAFITFKCCAYGYRKCLGKKGRVKKAHKSKTH

Molecule	tested on	assay	system	conditions	how to read	quantity	result
AFTCHCRRSCYSTEYSYGTCTVMGINHRACCL (disulfide (positions not given here); ends not checked; sequence looked up)	–	analytical ultracentrifugation	peptide, 10 mM sodium phosphate	40 to 160 µM, pH 7.4, 20 °C	–	sedimentation coefficient s20,w	~1.2 S
Insulin human	–	ELISA	rat, Sprague-Dawley, male, olfactory bulb	intranasal, 20 µg per nostril, 15 min	–	concentration	180 ± 62 pg/mg tissue
insulin degludec	–	ELISA	human mild renal impairment, serum	dose not given, single dose	relative to: impaired over normal renal function	AUC(0-inf) ratio	1.11
rnpA F107W (Bacillus subtilis)	–	NMR, item: His105	–	25 °C, 20 ± 1 mM, unfolded state, no sulfate, numbering of the source	–	pKa	5.76
CC(C)[C@H](NC(=O)[C@@H]1CCCN1C(=O)[C@H](CCCNC(=N)N)NC(=O)[C@H](CS)NC(=O)[C@H](Cc1c[nH]c2ccccc12)NC(=O)[C@H](CCCNC(=N)N)NC(=O)[C@@H](Cc1ccccc1)NC(=O)[C@H](Cc1c[nH]cn1)NC(=O)[C@H](CCC(=O)O)NC(=O)[C@H](CS)NC(=O)[C@H](CS)NC(=O)[C@H](CCCCN)NC(=O)[C@@H]1CC(=O)N[C@@H](CCCNC(=N)N)C(=O)N[C@@H](C)C(=O)N[C@@H](CC(=O)O)C(=O)N[C@H](Cc2ccc(O)cc2)C(=O)N1)C(N)=O [technetium-99m labelled]	–	–	C57 mice, spleen	intravenous, 0.037 MBq, 4 h	–	tissue uptake	0.37 ± 0.26 %ID/g
insulin	–	HPLC-UV	diabetic rat, plasma	subcutaneous, 4.0 IU/kg	–	Cmax	88 ± 22.3 µg/mL
TPDYLMQLMNDKKAMSSLPNFSGIFNHLERLLDEEISRVRKDMYNDTLNGSTEK (Qki 14-67 C35S/L27A (Mus musculus, UniProt Q9QYS9))	itself	CD thermal melting	–	50 µM	–	melting temperature	67 °C
NPH insulin	–	radioimmunoassay, item: insulin	female non-fasted rat, serum	5 IU/kg, 1 to 24 h, dose 371	–	Cmax	2250 µIU/mL
oxytocin-d5	–	–	rhesus monkey, CSF over plasma	intranasal vs intravenous, 80 IU, 0-60 min	–	drug targeting efficiency	111%
COc1cccc2c1C(=O)c1c(O)c3c(c(O)c1C2=O)C[C@@](O)(C(=O)CO)C[C@@H]3O[C@H]1C[C@H](NC(=O)[C@@H]2CCCN2C(=O)CN)[C@H](O)[C@H](C)O1	–	–	mouse, E0771 tumour-bearing, kidney	intravenous, 92 µmol/kg PhAc-ALGP-Dox	–	AUC	288 µM·h
insulin aspart	–	UPLC-MS/MS	human, healthy subjects, plasma	subcutaneous, 0.2 U/kg single dose, 4 h, euglycaemic clamp	–	AUC(0-t)	6.97 ng·h/mL
oxyntomodulin	–	–	K2-EDTA human plasma	three freeze-thaw cycles	–	freeze-thaw stability	unstable
COc1cccc2c1C(=O)c1c(O)c3c(c(O)c1C2=O)C[C@@](O)(C(=O)CO)C[C@@H]3O[C@H]1C[C@H](NC(=O)[C@@H]2CCCN2C(=O)CNC(=O)[C@@H](N)CC(C)C)[C@H](O)[C@H](C)O1	–	–	mouse, E0771 tumour-bearing, plasma	intravenous, 92 µmol/kg PhAc-ALGP-Dox	–	AUC	0.133 µM·h
B1 (UGT1A9)	COc1cc2oc(=O)cc(-c3ccccc3)c2cc1O	steady-state kinetics	–	pH 7.4, 37 °C	–	Vmax/Km	12 µL/min/mg
teriparatide	–	ELISA	healthy women	sc, 20 µg single dose, reference product, arithmetic mean	–	t1/2	42.1 ± 17.2 min
insulin lispro	–	radioimmunoassay, item: insulin	type 1 diabetes patients, serum	subcutaneous, dose not given	–	Tmax	49 min
insulin glulisine	–	–	obese type 2 diabetes patients, serum	subcutaneous, 0.2 U/kg, geometric mean	–	AUC(0-1 h)	0.000272 µM·h
CSCC[C@H](NC(=O)[C@H](CC(C)C)NC(=O)[C@H](Cc1c[nH]cn1)NC(=O)CNC(=O)[C@@H](NC(=O)[C@H](C)NC(=O)[C@H](Cc1c[nH]c2ccccc12)NC(=O)[C@H](CCC(N)=O)NC(=O)CCCCCNC(=O)[C@H](CCC(=O)NCCCC[C@@H]1NC(=O)[C@@H](Cc2ccc(O)cc2)NC(=O)[C@H](CC(=O)O)NC(=O)CNC(=O)[C@H](CCCNC(=N)N)NC1=O)NC(=O)CN1CCN(CC(=O)O)CCN(CC(=O)O)CC1)C(C)C)C(N)=O [copper-64 labelled]	–	–	ICR SCID mouse, female, spleen	intravenous, 750 kBq, 4 h	–	tissue uptake	1.06 ± 0.43 %ID/g
CC[C@H](C)[C@H](NC(=O)[C@H](CC(C)C)NC(=O)[C@H](CCCNC(=N)N)NC(C)=O)C(=O)N[C@@H](CCC(=O)O)C(=O)N[C@@H](CC(=O)O)C(=O)N[C@H](C(=O)N[C@H]1CSSC[C@@H](C(=O)N[C@@H](CC(C)C)C(=O)N[C@@H](Cc2c[nH]c3ccccc23)C(=O)N[C@@H](CCC(=O)O)C(=O)N[C@@H](CC(=O)O)C(=O)N[C@@H](CC(=O)O)C(=O)N[C@@H](CCCCNC(=O)CCCCCN2C(=CC=C3CCCC(C=CC4=[N+](CCCCS(=O)(=O)O)c5ccc(S(=O)(=O)[O-])cc5C4(C)C)=C3Oc3ccc(S(=O)(=O)O)cc3)C(C)(C)c3cc(S(=O)(=O)O)ccc32)C(N)=O)NC(=O)CNC(=O)[C@H](Cc2c[nH]c3ccccc23)NC(=O)[C@H](CCCNC(=N)N)NC(=O)[C@@H]2CCCN2C(=O)[C@H](CC(C)C)NC1=O)[C@@H](C)CC	–	NIR fluorescence imaging	C57BL/6 mouse, inguinal lymph node	intradermal, 20 µL, 100 µM	–	time to maximal fluorescence	≤ 2.5 min
